# Published values gathered from unrelated publications.
# Lines come from different studies, so protocols differ. ± gives the spread as reported.
# UniProt Q9NWZ3, sequence (whole entry, looked up): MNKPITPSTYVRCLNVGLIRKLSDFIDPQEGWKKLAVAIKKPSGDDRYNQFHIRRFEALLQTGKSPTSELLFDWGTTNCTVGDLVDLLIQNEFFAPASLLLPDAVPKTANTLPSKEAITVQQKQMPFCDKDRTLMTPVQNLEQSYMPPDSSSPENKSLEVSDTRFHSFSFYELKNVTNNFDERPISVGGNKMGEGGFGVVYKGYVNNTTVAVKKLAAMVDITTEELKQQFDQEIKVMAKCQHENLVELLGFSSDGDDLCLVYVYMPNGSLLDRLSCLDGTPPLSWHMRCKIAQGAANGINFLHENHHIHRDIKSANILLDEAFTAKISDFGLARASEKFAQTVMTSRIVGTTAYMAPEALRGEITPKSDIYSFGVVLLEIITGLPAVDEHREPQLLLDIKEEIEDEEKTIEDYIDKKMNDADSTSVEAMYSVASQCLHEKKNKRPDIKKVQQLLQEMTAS
Structure (SMILES),target or system,test,system,conditions,how to read,measurement,value
O=C1NC2(CC2)COc2ncc(F)cc2[C@H]2COCCN2c2ccn3ncc1c3n2,,,"Sprague-Dawley rat, female, serum","oral, 2.5 mg/kg/day, 4 weeks daily, end of treatment",,total cholesterol,2 ± 0.36 mmol/L
CC[C@H](C)[C@@H]([C@@H](CC(=O)N1CCC[C@H]1[C@H](OC)[C@@H](C)C(=O)N[C@H](C)[C@@H](O)c1ccccc1)OC)N(C)C(=O)[C@@H](NC(=O)[C@H](C(C)C)N(C)C(=O)OCc1ccc(NC(=O)[C@H](CCCNC(N)=O)NC(=O)[C@@H](NC(=O)CCCCCN2C(=O)CC(SC[C@H](NC(=O)[C@H](CC(=O)O)NC(=O)[C@H](Cc3ccc(O)cc3)NC(=O)[C@H](Cc3c[nH]c4ccccc34)NC(=O)[C@@H](N)CCCNC(=N)N)C(=O)O)C2=O)C(C)C)cc1)C(C)C (stereo partly drawn),,,"C57BL/6 mouse, healthy, kidney","intraperitoneal, 2.5 mg/kg, 6 h",,concentration,not detected
CCCC[C@H](NC(=O)CN1CCC(NC(=O)CN2CCN(CC(N)=O)CCN(CC(N)=O)CCN(CC(N)=O)CC2)CC1)C(=O)N[C@H]1CC(=O)NCCCC[C@@H](C(N)=O)NC(=O)[C@H](Cc2c[nH]c3ccccc23)NC(=O)[C@H](CCCNC(=N)N)NC(=O)[C@@H](Cc2ccccc2)NC(=O)[C@H](Cc2c[nH]cn2)NC1=O,,iTLC,mouse serum,"72 h, 37 °C, lead-203-labelled",,intact complex,100%
N=C(N)NCCC[C@@H]1NC(=O)[C@H](CCCCNC(=O)CCC(NC(=S)Nc2ccc(CC3CN(CC(=O)O)CCN(CC(=O)O)CCN(CC(=O)O)CCN3CC(=O)O)cc2)C(=O)NCCCC[C@@H]2NC(=O)[C@@H](Cc3ccc(O)cc3)NC(=O)[C@H](CC(=O)O)NC(=O)CNC(=O)[C@H](CCCNC(=N)N)NC2=O)NC(=O)[C@@H](Cc2ccc(O)cc2)NC(=O)[C@H](CC(=O)O)NC(=O)CNC1=O (stereo partly drawn) [scandium-44 labelled],,ex vivo γ-counting,"female athymic nude mice, U-87 MG xenograft, lung","intravenous, 4 h",,tissue uptake,0.44 ± 0.23 %ID/g
CC[C@H](C)[C@H](NC(=O)[C@H](CO)NC(=O)[C@H](Cc1ccc(O)cc1)NC(=O)[C@H](Cc1ccc(O)cc1)NC(=O)[C@H](CC(N)=O)NC(=O)CNC(=O)[C@H](CO)NC(=O)[C@H](Cc1ccc(O)cc1)NC(=O)[C@H](CO)NC(=O)[C@H](CO)NC(=O)[C@H](CC(N)=O)NC(=O)COCCOCCNC(=O)CN1CCN(CC(=O)O)CCN(CC(=O)O)CCN(CC(=O)O)CC1)C(=O)N[C@@H](CC(C)C)C(N)=O [copper-64 labelled],,dynamic PET,"KPC mouse, pancreatic cancer model, tumor","intravenous, 0.9 min, 49 days after tamoxifen",,tumour uptake,13.8 %ID/mL
CCCC[C@H](NC(=O)[C@H](CCC(=O)O)NC(=O)[C@H](CCCCN)NC(=O)[C@H](CO)NC(=O)[C@H](Cc1ccccc1)NC(C)=O)C(=O)N[C@@H](CCCNC(=N)N)C(=O)N[C@@H](CC(N)=O)C(=O)N[C@@H](CCCNC(=N)N)C(=O)N[C@@H](Cc1ccc(O)cc1)C(=O)N[C@@H](Cc1c[nH]c2ccccc12)C(=O)N[C@@H](CCCC(=O)NCCN(CC(=O)NCCN(CC(=O)NCCN(CC(=O)NCCN(CC(=O)N[C@@H](CCCNC(=N)N)C(N)=O)C(=O)Cn1cnc2c(=O)[nH]c(N)nc21)C(=O)Cn1ccc(N)nc1=O)C(=O)Cn1ccc(N)nc1=O)C(=O)Cn1cnc2c(=O)[nH]c(N)nc21)C(=O)N[C@@H](CS)C(=O)N[C@@H](C)C(=O)N[C@@H](CC(C)C)C(=O)N[C@@H](CC(=O)O)C(=O)N1CCC[C@H]1C(=O)N[C@@H](CC(N)=O)C(=O)N[C@@H](CC(C)C)C(=O)N[C@H](C(=O)N[C@@H](CC(N)=O)C(=O)N[C@@H](CCC(N)=O)C(=O)N[C@@H](CCC(N)=O)C(=O)N[C@@H](CCCCN)C(=O)N[C@@H](CCCNC(=N)N)C(=O)N[C@@H](C)C(=O)N[C@@H](CCCCNC(=O)CN(CCNC(=O)CN(CCNC(=O)CN(CCNC(=O)CN(CCNC(=O)[C@H](CCCNC(=N)N)NC(C)=O)C(=O)Cn1ccc(N)nc1=O)C(=O)Cn1cnc2c(=O)[nH]c(N)nc21)C(=O)Cn1cnc2c(=O)[nH]c(N)nc21)C(=O)Cn1ccc(N)nc1=O)C(=O)N[C@H](C(=O)N[C@@H](CCCNC(=N)N)C(=O)N[C@@H](CO)C(=O)N[C@H](C(=O)N[C@@H](Cc1ccc(O)cc1)C(=O)N[C@@H](CCC(=O)O)C(=O)N[C@@H](CCC(=O)O)C(=O)NCC(=O)N[C@@H](CCC(=O)O)C(N)=O)[C@@H](C)CC)[C@@H](C)CC)[C@@H](C)O,,,,"37 °C, together with: trypsin",baseline: three-helix ZHER2:342 affibody,half-life ratio,~1.5 fold
COc1ccccc1-c1n[nH]c2nc(NC3CCN(C(=O)Cc4ccc(F)cc4F)CC3)ncc12,,"bead binding, competition bead pull-down, measured: LINJ.34.0870",Leishmania donovani extract,10 µM,baseline: vehicle,relative abundance,0.71
CCCCCCCCCCCCCCCCCCCCCCCCCC(=O)O[C@H](CCCCCCCCCCCCCC)[C@@H](O)[C@H](CO[C@H]1O[C@H](CO)[C@H](O)[C@H](O)[C@H]1O)NC(=O)OCOC(=O)CCCCCn1cc(CCC(=O)N[C@@H](Cc2ccccc2)C(=O)N[C@@H](Cc2ccccc2)C(=O)N[C@@H](CCCNC(=N)N)C(=O)N[C@@H](CCCCN)C(=O)N[C@@H](CO)C(=O)N[C@H](C(=O)N[C@H](C(=O)N[C@@H](CC(N)=O)C(=O)N[C@@H](Cc2ccccc2)C(=O)N[C@@H](CCC(=O)O)C(=O)N[C@@H](CCCCN)C(=O)N[C@@H](CC(C)C)C(=O)O)[C@@H](C)CC)[C@@H](C)CC)nn1,,HPLC-ESI-MS/MS,aqueous ammonium formate 50 mM,"10 µg/mL, eight days, pH 3.0, 20 °C",,remaining α-GalCer level,< 0.05%
CC(C)C[C@H](NC(=O)[C@@H]1CCCN1C(=O)[C@H](CCCCN)NC(=O)[C@@H](N)CO)C(=O)N1CCC[C@H]1C(=O)N[C@@H](CCC(=O)O)C(=O)N[C@H](C(=O)N[C@H](C(=O)N[C@@H](CC(=O)O)C(=O)N[C@@H](CCC(=O)O)C(=O)N[C@@H](Cc1ccc(O)cc1)C(=O)NCC(=O)NCCOCCOCCOCCOCCOCCOCCOCCOCCOCCOCCOCCOCCOCCOCCOCCOCCOCCOCCOCCOCCOCCOCCOCCOCCC(=O)N[C@@H](CCCCNC(=O)CC[C@H](C(=O)O)N1CCN(CC(=O)O)CCN(CC(=O)O)CC1)C(=O)N1CCN(CCCN(C)c2ccc3nccc(C(=O)NCC(=O)N4CC(F)(F)C[C@H]4C#N)c3c2)CC1)[C@@H](C)O)C(C)C [copper-64 labelled],,PET,"NMRI nude mouse, HT-1080 xenograft, hFAP-negative tumour",intravenous,,SUVmean,0.88 ± 0.34 SUV
C[C@H](NC(=O)[C@H](CCCNC(=N)N)NC(=O)[C@@H](N)Cc1ccccc1)C(=O)N[C@H]1CSCc2cccc(n2)CSC[C@@H](C(=O)N[C@H](C(=O)NCC(=O)N[C@@H](CO)C(=O)N[C@@H](Cc2ccc(O)cc2)C(=O)N[C@@H](Cc2c[nH]cn2)C(=O)N[C@@H](CCCCNC(=O)CN2CCN(CC(=O)O)CCN(CC(=O)O)CCN(CC(=O)O)CC2)C(=O)O)[C@@H](C)O)NC(=O)[C@H](CC(=O)O)NC(=O)[C@H](Cc2ccccc2)NC(=O)[C@@H]2CCCN2C1=O [gallium-68 labelled],,radio-HPLC,PBS,"2 h, 37 °C",,intact fraction,> 99%
CN(C)[C@H]1C[C@@]23CC[C@@]4(O2)C(=CC[C@]2(C)[C@@H](c5ccc6ccncc6c5)CC[C@H]24)C=C3[C@@H](O)[C@@H]1O,"IRAK4 (Homo sapiens, UniProt Q9NWZ3)","ATP probe labelling, inhibitor, KiNativ profiling",,0.1 µM,,inhibition,10.1%
CCCC[C@H](NC(=O)CN1CCC(NC(=S)Nc2ccc(C[C@H]3CN(CC(N)=O)CCN(CC(N)=O)CCN(CC(N)=O)CCN3CC(N)=O)cc2)CC1)C(=O)N[C@H]1CC(=O)NCCCC[C@@H](C(N)=O)NC(=O)[C@H](Cc2c[nH]c3ccccc23)NC(=O)[C@H](CCCNC(=N)N)NC(=O)[C@@H](Cc2ccccc2)NC(=O)[C@H](Cc2c[nH]cn2)NC1=O,,iTLC,human serum,"72 h, 37 °C, lead-203-labelled",,intact complex,100%

# A few entries again:
Structure (SMILES),target or system,test,system,conditions,how to read,measurement,value
CCCC[C@H](NC(=O)CN1CCC(NC(=S)Nc2ccc(C[C@H]3CN(CC(N)=O)CCN(CC(N)=O)CCN(CC(N)=O)CCN3CC(N)=O)cc2)CC1)C(=O)N[C@H]1CC(=O)NCCCC[C@@H](C(N)=O)NC(=O)[C@H](Cc2c[nH]c3ccccc23)NC(=O)[C@H](CCCNC(=N)N)NC(=O)[C@@H](Cc2ccccc2)NC(=O)[C@H](Cc2c[nH]cn2)NC1=O,,iTLC,human serum,"72 h, 37 °C, lead-203-labelled",,intact complex,100%
